Assay results pooled from the literature.
Lines come from different studies, so protocols differ. Several values in a cell are separate wells, animals, samples, runs or records. ± gives the spread as reported.
FPR2: N-formyl peptide receptor 2 (FPR2, Homo sapiens, UniProt P25090)
Sequence of UniProt P25090 (whole entry, looked up): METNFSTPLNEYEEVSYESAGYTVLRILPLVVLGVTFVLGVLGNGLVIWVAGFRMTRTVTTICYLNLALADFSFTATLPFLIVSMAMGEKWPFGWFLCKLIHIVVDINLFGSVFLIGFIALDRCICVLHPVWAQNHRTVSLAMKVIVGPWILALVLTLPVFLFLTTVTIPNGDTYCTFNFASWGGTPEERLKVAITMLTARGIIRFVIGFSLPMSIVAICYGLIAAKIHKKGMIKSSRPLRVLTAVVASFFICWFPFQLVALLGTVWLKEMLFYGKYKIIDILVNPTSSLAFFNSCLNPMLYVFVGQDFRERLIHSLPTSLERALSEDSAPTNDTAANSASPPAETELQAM
Aryl hydrocarbon receptor: Aryl hydrocarbon receptor (Danio rerio, UniProt Q9YGV3)
VRK3: Serine/threonine-protein kinase VRK3 (VRK3, Homo sapiens, UniProt Q8IV63)
Sequence of UniProt Q8IV63 (whole entry, looked up): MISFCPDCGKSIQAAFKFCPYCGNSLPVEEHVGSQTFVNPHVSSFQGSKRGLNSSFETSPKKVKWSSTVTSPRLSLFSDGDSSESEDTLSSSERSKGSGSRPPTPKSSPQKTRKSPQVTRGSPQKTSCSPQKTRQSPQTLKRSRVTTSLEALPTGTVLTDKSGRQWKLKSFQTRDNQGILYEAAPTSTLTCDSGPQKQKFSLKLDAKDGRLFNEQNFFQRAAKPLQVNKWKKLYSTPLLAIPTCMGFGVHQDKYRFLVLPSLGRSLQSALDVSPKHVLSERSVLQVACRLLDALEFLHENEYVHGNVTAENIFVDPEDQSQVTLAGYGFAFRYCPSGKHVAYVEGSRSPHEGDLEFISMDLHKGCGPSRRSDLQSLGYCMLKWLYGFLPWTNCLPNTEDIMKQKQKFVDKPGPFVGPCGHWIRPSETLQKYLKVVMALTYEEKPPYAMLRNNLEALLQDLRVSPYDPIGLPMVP
SET: Protein SET (SET, Homo sapiens, UniProt Q01105)
Sequence of UniProt Q01105 (whole entry, looked up): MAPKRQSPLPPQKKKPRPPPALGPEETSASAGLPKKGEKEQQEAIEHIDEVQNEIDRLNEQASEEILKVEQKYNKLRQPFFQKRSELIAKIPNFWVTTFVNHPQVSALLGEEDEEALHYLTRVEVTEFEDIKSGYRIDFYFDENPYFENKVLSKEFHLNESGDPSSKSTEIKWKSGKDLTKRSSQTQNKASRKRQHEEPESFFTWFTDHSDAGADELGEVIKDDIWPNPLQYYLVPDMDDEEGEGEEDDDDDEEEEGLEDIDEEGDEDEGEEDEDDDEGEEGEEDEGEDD
HDAC6 ZnF-UBD domain: Protein deacetylase HDAC6, ZnF-UBD domain (HDAC6, Homo sapiens, UniProt Q9UBN7)
Sequence of UniProt P18669 (whole entry, looked up): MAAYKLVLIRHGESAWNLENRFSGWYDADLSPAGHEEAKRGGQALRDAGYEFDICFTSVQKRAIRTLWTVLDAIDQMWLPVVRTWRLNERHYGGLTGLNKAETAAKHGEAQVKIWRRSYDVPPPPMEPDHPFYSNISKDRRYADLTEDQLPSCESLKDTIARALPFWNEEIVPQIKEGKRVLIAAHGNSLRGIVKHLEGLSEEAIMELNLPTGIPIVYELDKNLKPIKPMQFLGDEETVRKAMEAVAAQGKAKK
Sequence of UniProt O76090 (whole entry, looked up): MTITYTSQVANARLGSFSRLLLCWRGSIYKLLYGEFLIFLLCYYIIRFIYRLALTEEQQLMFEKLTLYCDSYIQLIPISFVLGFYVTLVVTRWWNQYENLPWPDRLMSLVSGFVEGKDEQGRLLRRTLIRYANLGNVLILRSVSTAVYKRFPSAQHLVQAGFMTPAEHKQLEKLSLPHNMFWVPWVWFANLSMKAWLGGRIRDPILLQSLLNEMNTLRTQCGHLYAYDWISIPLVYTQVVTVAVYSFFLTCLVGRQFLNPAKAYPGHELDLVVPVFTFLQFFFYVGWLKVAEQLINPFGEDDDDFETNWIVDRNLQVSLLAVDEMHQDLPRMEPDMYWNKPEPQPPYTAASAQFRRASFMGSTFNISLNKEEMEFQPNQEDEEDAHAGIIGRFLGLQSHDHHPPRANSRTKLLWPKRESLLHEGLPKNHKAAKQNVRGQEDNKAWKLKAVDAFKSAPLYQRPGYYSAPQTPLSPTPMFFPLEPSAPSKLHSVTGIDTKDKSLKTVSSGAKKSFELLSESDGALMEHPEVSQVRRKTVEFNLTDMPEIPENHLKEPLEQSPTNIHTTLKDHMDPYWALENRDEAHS
Sequence of UniProt P00441 (whole entry, unmodified, looked up): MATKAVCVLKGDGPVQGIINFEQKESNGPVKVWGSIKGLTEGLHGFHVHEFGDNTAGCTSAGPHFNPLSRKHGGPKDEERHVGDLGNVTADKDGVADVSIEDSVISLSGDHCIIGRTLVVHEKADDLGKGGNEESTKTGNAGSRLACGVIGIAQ
Sequence of UniProt P00519 (whole entry, unmodified, looked up): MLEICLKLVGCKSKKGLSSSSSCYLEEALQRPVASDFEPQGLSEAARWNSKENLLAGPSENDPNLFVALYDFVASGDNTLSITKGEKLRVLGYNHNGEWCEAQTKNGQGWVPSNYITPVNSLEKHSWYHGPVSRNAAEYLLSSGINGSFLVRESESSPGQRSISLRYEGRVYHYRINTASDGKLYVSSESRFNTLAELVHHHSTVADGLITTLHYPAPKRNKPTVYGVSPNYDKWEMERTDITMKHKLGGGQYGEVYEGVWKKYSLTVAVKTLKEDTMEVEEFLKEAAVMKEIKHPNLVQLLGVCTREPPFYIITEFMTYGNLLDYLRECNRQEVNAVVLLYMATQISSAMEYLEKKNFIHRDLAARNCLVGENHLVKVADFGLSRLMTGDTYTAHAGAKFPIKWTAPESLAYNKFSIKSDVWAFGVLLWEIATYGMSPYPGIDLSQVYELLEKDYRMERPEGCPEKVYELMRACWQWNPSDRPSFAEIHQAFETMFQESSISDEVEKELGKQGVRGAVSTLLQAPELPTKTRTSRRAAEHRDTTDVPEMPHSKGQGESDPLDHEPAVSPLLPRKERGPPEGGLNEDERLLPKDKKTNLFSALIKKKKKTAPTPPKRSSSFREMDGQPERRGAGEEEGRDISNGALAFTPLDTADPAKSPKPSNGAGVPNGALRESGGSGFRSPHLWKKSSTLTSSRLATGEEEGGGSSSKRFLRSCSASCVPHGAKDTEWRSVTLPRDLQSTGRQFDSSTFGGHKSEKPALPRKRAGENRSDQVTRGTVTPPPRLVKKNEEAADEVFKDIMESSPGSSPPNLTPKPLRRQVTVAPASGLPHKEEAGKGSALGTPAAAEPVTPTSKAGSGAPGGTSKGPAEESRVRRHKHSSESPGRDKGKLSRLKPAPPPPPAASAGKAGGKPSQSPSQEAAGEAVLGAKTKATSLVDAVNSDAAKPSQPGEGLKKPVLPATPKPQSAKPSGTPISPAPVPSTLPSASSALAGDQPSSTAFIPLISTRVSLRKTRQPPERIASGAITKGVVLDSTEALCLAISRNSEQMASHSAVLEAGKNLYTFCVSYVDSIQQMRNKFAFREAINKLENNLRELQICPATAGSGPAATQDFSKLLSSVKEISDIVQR
Sequence of UniProt Q9UBN7 (whole entry, looked up): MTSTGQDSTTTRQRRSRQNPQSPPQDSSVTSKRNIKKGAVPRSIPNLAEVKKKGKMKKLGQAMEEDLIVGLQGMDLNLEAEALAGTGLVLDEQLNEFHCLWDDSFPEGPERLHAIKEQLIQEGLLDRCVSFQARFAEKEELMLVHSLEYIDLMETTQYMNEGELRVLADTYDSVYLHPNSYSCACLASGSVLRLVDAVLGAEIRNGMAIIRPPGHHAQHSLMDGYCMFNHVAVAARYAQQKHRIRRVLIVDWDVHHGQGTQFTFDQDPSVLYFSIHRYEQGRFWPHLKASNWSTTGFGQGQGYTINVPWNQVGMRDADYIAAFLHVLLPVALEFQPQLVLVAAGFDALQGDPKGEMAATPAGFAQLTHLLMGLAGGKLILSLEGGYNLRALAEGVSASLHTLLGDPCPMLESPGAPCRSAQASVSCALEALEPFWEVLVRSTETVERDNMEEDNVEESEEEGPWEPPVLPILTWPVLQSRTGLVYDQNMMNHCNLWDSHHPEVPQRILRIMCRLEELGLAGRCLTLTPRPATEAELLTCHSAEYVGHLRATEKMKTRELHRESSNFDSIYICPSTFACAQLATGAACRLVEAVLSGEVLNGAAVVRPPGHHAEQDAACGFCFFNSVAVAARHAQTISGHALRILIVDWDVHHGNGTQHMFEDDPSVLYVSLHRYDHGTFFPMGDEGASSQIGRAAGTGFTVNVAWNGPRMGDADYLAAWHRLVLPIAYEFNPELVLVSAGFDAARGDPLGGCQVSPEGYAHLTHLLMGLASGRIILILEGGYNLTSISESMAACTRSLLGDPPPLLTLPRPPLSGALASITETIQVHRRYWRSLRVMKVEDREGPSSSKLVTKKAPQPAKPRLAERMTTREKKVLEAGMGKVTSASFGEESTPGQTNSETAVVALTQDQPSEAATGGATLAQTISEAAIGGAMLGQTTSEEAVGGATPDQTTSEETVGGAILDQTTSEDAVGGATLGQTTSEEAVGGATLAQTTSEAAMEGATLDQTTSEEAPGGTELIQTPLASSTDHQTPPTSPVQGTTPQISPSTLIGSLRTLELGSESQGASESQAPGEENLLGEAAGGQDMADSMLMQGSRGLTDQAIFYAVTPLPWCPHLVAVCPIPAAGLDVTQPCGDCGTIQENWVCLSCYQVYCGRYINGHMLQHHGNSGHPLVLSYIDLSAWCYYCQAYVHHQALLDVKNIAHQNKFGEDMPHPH
Sequence of UniProt P51575 (whole entry, unmodified, looked up): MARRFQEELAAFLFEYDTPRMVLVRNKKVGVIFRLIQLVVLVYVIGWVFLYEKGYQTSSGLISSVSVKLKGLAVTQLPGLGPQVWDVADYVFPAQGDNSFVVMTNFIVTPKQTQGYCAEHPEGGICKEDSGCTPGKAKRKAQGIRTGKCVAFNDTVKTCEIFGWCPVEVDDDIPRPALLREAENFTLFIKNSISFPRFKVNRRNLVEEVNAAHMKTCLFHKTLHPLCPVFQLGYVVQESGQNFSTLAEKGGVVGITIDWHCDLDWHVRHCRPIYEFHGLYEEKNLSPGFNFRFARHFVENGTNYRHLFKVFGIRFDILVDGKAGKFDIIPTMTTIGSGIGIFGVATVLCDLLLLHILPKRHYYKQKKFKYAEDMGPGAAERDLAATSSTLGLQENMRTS

Structure (SMILES) | tested on | assay | test system | setting | scale | quantity | result
CC[C@@H]1[C@H](F)C(=O)N[C@@H]1COc1nccc2cc(C(N)=O)c(OC)cc12 | ATM (Homo sapiens, UniProt Q13315) | ATP-site probe binding, ActivX profiling | THP-1 cell lysate | 0.2 mM |  | inhibition | -2.2%
N#Cc1ccc(C[C@H](Nc2ncc(-c3ccc(F)cc3)o2)C(=O)N2CCc3ccccc32)cc1 | FPR2 | cell-based |  | concentration not given |  | activity | inactive
O=C(COP(=O)(O)O)[C@@H](O)[C@H](O)[C@H](O)COP(=O)(O)O | Phosphoglycerate mutase 1 (Homo sapiens, UniProt P18669) | activator |  | 0.07812 mM, wild-type enzyme, unit not given | relative to no compound | enzyme activity | 1.41 and 1.33
CC/C=C\C[C@H](O)/C=C/C=C\C=C\C=C\[C@@H](O)[C@@H](O)C/C=C\CCC(=O)O | FPR2 | calcium mobilisation | HEK293 expressing FPR2 | concentration not given |  | intracellular calcium | no effect
Nc1ccc2ccc3cccc4ccc1c2c34 | Aryl hydrocarbon receptor | reporter gene, agonist, luciferase reporter | ZF-4 | 41.15 µM | relative to: vehicle control | fold change | 1.43
CCC1(CC)NC(=O)c2c(c3ccc(Cl)c(Cl)c3n2C)C1C#N (centres unmarked) | VRK3 | thermal stability, thermal shift |  | 10 µM | higher = stronger binding | delta Tm | 0 °C
CCCCCCCCCCCCC/C=C/[C@@H](O)[C@H](CO)NC(=O)CCCCCCCCCCCCCCC | SET | lipid binding, GFP pull-down LC-MS/MS | A549 overexpressing GFP-tagged protein | ER-targeted construct | relative to: eluate plus flow-through | lipid fraction bound | 12.3%
O=[N+]([O-])c1cc(C(F)(F)F)ccc1NCc1ccsc1 | Endothelial PAS domain-containing protein 1, PAS-B domain (EPAS1, Homo sapiens, UniProt Q99814) | binding, ITC, reverse mode |  |  |  | TΔS | 1.44 ± 0.15 kcal/mol
C1=C/COCc2cc(ccc2OCCN2CCCC2)Nc2nccc(n2)-c2cccc(c2)COC/1 | ABL1 (Homo sapiens, UniProt P00519, F317L) |  |  | 0.1 µM | relative to: DMSO control | remaining binding | 43%
Cc1cccc(N2CC(C(=O)O)CC2=O)c1 (centres unmarked) | Huntingtin (HTT, Homo sapiens, UniProt P42858) | binding, affinity selection mass spectrometry |  |  | relative to: other proteins in batch | log fold enrichment | -0.171
Nc1nnc(-c2ccccc2O)cc1N1CCN(Cc2ccc(OCCOCCNc3cccc4c3C(=O)N(C3CCC(=O)NC3=O)C4=O)c(F)c2)CC1 (centres unmarked) | SMARCA2 (Homo sapiens, UniProt P51531) | immunohistochemistry | mouse, NCI-H322 xenograft, tumour | dose not given | relative to: vehicle | reduction in positive cells | 62%
CCCCCCCCCCCCC/C=C/[C@@H](O)[C@H](CO)NC(=O)CCCCCCCCCCCCCCCCCCC | SET | lipid binding, GFP pull-down LC-MS/MS | A549 overexpressing GFP-tagged protein |  | relative to: eluate plus flow-through | lipid fraction bound | 18.2%
CC[C@H](C)[C@H](NC(=O)[C@H](CCCNC(=N)N)NC(=O)[C@H](Cc1c[nH]cn1)NC(=O)[C@H](CCCNC(=N)N)NC(=O)[C@H](CC(=O)O)NC(=O)[C@@H](N)CC(=O)O)C(=O)N[C@@H](CCC(=O)O)C(=O)N[C@@H](CCC(=O)O)C(=O)N[C@@H](CCCCN)C(=O)N[C@@H](CCCNC(=N)N)C(=O)N[C@@H](CCCCN)C(=O)N[C@@H](CCCNC(=N)N)C(=O)N[C@H](C(=O)N[C@@H](Cc1ccc(O)cc1)C(=O)N[C@@H](CCC(=O)O)C(=O)N[C@H](C(=O)N[C@@H](Cc1ccccc1)C(=O)N[C@@H](CCCCN)C(=O)N[C@@H](CO)C(=O)N[C@H](C(=O)N[C@@H](CCSC)C(=O)N[C@@H](CCCCN)C(=O)N[C@@H](CCCCN)C(=O)N[C@@H](CO)C(=O)N1CCC[C@H]1C(=O)N[C@@H](Cc1ccccc1)C(=O)N[C@@H](CC(N)=O)C(=O)NCC(=O)N1CCC[C@H]1C(=O)O)[C@@H](C)CC)[C@@H](C)O)[C@@H](C)O | NF-kappa-B inhibitor alpha (Homo sapiens, UniProt P25963) | binding, ITC |  | pH 7.5, 293 K, 50 mM NaCl |  | -TΔS | -4.4 ± 0.2 kcal/mol
Cc1cc2ccccc2c2ccc3ccccc3c12 | Aryl hydrocarbon receptor | reporter gene, agonist, luciferase reporter | ZF-4 | 1.524 µM | relative to: vehicle control | fold change | 1.36
O=C(O)CCc1cn2cccnc2n1 | HDAC6 ZnF-UBD domain |  |  |  |  | Kd | > 1000 µM
CN(C)C(=O)C(CCN1CCC(O)(c2ccc(Cl)cc2)CC1)(c1ccccc1)c1ccccc1 | Calcium-activated potassium channel subunit alpha-1, with LRRC26 γ1 subunit (KCNMA1, Homo sapiens, UniProt Q12791) | ion current, inside-out patch, mean of individual fits | BKα/γ1 channel | 1 µM, together with: nominally 0 Ca2+ |  | V1/2 | 7.4 ± 5 mV

Structure (SMILES) | tested on | assay | test system | setting | scale | quantity | result
Cn1cc(-c2ccc(-c3cncc(Cl)c3N3CCC4(CCNC4=O)CC3)cc2)cn1 | COLO 205 | gene expression, microarray, measured: KANK1 mRNA |  | concentration not given, 6 h | relative to: untreated cells | log2 fold change | -2.91
CCCCCCCCCCCCC/C=C/[C@@H](O)[C@H](CO)NC(=O)CCCCCCCCCCCCC | SET | lipid binding, GFP pull-down LC-MS/MS | A549 overexpressing GFP-tagged protein | ER-targeted construct | relative to: eluate plus flow-through | lipid fraction bound | 8.6%
Nc1ncnc2c1ncn2[C@@H]1O[C@H](COP(=O)(O)CP(=O)(O)OP(=O)(O)O)[C@@H](O)[C@H]1O | P2X purinoceptor 1 (P2RX1, Homo sapiens, UniProt P51575, K136A) | saturation binding | HEK293 | 103 nM |  | specific binding | 3550 CCPM and 3000 CCPM
CCN1CCC2(CC1)NC(=O)c1c(c3ccc(Cl)c(Cl)c3n1C)C2C#N (racemic) | VRK3 | thermal stability, thermal shift |  | 10 µM | higher = stronger binding | delta Tm | -0.1 °C
c1coc(-c2n[nH]cc2-c2ccnc3ccccc23)c1 | Serine/threonine-protein kinase ATG1 (ATG1, Candida albicans, UniProt Q5A649) | kinase binding, MIB/MS competition | Candida albicans lysate | 1 µM | relative to: DMSO, negative = stronger binding | log2 fold change | -0.17
N[C@H]1CCN(c2nccc(-c3cnn4ncccc34)n2)C1 | ABL1 (Homo sapiens, UniProt P00519, T315I) | KINOMEscan |  | 1 µM | relative to: control | remaining binding | 100%
O=C(O)CCC(=O)c1cccs1 | HDAC6 ZnF-UBD domain |  |  |  |  | Kd | 555 µM
Nc1ncnc2c1ncn2[C@@H]1O[C@H](CO[P@](=O)(O)O[P@](=O)(O)O[P@@](=O)(O)S)[C@@H](O)[C@H]1O | GUK1 (Homo sapiens, UniProt Q16774) | ITC |  | concentration not given |  | ΔG of binding | -6 kcal/mol
COc1ccc2c(=O)c(Oc3ccccc3)c(C)oc2c1OC | Cullin-1, C-terminal domain with ROC1 (Homo sapiens, UniProt Q13616) | inhibitor |  | up to 80 µM |  | E3 ligase activity | no inhibition
CC(=C/C(=O)O)/C=C/C=C(\C)C1C=C2C(C)(C)CCCC2(C)O1 (centres unmarked) | Rhodopsin (RHO, Homo sapiens, UniProt P08100, T17M) | ER retention, immunostaining co-localization, measured: opsin with calnexin | COS-7 transfected T17M | 50.00 µM |  | Pearson correlation coefficient | 0.46
Cc1cccc2ccc3ccccc3c12 | AHR (Homo sapiens, UniProt P35869) | reporter gene, agonist, yeast LacZ reporter | Saccharomyces cerevisiae |  |  | maximum response | 142 LacZ units
Nc1ccc(C(=O)O)cc1 | BEST1 (Homo sapiens, UniProt O76090) | whole-cell patch clamp | HEK293 transiently expressing channel | concentration not given, membrane potential 0 mV |  | current density | 0.01 pA/pF and 0.1 pA/pF and -0.02 pA/pF and -0.22 pA/pF and 0.3 pA/pF and 0.25 pA/pF and -0.33 pA/pF
COc1ccccc1C(=O)C#Cc1ccc(F)c(F)c1 | rhlR (Pseudomonas aeruginosa, UniProt P54292) | receptor binding |  | concentration not given, 1.5 h, together with: BHL at 1:1 ratio | relative to: control | binding | 50%
[O-][S+]1CCCCS1 (centres unmarked) | SOD1 (Homo sapiens, UniProt P00441, G94A) | intact protein LC-MS | SOD1 G93A transgenic mice, whole blood | intravenous, 10 mg/kg, 12 h |  | target engagement | 42% and 40.9%
CN1C(=O)/C(=C2\Nc3ccccc3\C2=N/O)c2ccc(Br)cc21 | Aryl hydrocarbon receptor | reporter gene, agonist, luciferase reporter | ZF-4 | 0.00128 µM | relative to: vehicle control | fold change | 1.19
C=CC(=O)N1CCC(COCC(=O)N2CCN(c3nc(-c4cnc(N)nc4C(F)F)nc(N4CCOC[C@@H]4C)n3)CC2)CC1 | NUAK2 (Homo sapiens, UniProt Q9H093) | KINOMEscan |  | 1 µM | relative to: DMSO control | remaining binding | 100%

For quick reference, copied from above:
Structure (SMILES) | tested on | assay | test system | setting | scale | quantity | result
Cc1cc2ccccc2c2ccc3ccccc3c12 | Aryl hydrocarbon receptor | reporter gene, agonist, luciferase reporter | ZF-4 | 1.524 µM | relative to: vehicle control | fold change | 1.36
O=C(O)CCc1cn2cccnc2n1 | HDAC6 ZnF-UBD domain |  |  |  |  | Kd | > 1000 µM
CN(C)C(=O)C(CCN1CCC(O)(c2ccc(Cl)cc2)CC1)(c1ccccc1)c1ccccc1 | Calcium-activated potassium channel subunit alpha-1, with LRRC26 γ1 subunit (KCNMA1, Homo sapiens, UniProt Q12791) | ion current, inside-out patch, mean of individual fits | BKα/γ1 channel | 1 µM, together with: nominally 0 Ca2+ |  | V1/2 | 7.4 ± 5 mV
